Results gathered from unrelated publications.
A part holds a random share of what one study measured.

Study 1
Target: Hepatocyte nuclear factor 3-alpha (Foxa1, Mus musculus, UniProt P35582, residues 1-468, full length assumed)
Technique: EMSA with sequencing
Molecule type: double-stranded DNA, one strand shown
Sample: in vitro
Tested at: 10 and 20 nM
Notes: whole designed probe, mean of two concentrations, ends assumed
Baseline: negative control set to 0
Direction: higher = stronger binding
Constant ends, left off below: GTGAGCGGTGCCCATTGATGGGGAAC … TTTCACTGGGATCGTGGGGAC
Construct (chain): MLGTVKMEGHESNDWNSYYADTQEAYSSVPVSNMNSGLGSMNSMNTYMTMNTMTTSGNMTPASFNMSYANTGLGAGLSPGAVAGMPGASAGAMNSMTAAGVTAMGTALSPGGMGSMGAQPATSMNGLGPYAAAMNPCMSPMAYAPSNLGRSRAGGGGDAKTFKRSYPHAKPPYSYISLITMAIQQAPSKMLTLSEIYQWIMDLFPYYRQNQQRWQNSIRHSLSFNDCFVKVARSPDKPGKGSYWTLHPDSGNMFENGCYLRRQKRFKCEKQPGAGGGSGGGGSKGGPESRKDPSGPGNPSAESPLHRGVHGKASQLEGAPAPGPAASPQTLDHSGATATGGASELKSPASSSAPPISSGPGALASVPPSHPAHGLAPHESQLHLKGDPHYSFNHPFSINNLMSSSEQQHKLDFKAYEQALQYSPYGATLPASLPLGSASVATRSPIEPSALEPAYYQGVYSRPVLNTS
Sequence	normalised bound fraction [ratio]
TGGGGTAAAGAGCCCTCACCCTGCCTGCCACACACTGGTAGTGTCAGATAACATTGAAGGGTGTTAGTTTAAAGGCTTCATGGACTCTATAATGTCAACAAAAGTGCTGTTAACTTTCTTCTGGGTCTCAGGCTCCTGATGTAGAGTCAGTGGAGCAACCCTGCCATCTGCTGTTATGCTGTTGATGTTGCTG	0.294
CTAAGAGTTGGCAGATCATGCAACAGCCCGGGTCCCTGAATGGCCATGTAGAACATGATCTCTACCCTGACCTATTTTAGACAGTACAATTAAATAAACAAGCAGACTTTTGTAGTAGAAAATCCCTGGAATTTGGGGTTTATTTATTACTAAAGAATAGCTTTGCATCTGGCCCTTGTTTATCTGTCATTTA	0.33
CTTACCCAGATTCAGCTGTTTGTCTTGATTAGGCATTCTCCTGTGGCTGTAAACTTTTGATGACATTCAAGAGCTCCAATGAAGTTGATTCTGAGATTGCCCATTTACATACTGTTTTTGTGAAGGGATGGAGTTGTGGAGTTCCCTACTCCACTACCTTCACTGACATTACTTCGTTTAAGTCCTTCATAAG	0.0425
ACCTCATCTCAGGTATTTTCTGATGACGTATGTCTCAAGAAGAGTTCCTAGTAGCATCTGTGGTACCAGTTATGGAATTCTGAGTTTCTCTACAGATGACTTTTTCAAAGATCAGGGATCCAGGTCTAGCATCCTCACAATTTGTCTAAGTGCTGAATGAATGGAGTACTTAGAAAAGGCCTCTATTTAAGAT	0.0356
TTTCATCCCAAATGGTTGACTTTTCAGTATTTGAGCTAGACTTACCTTATGAATTATAGTGTGCATTCTCACTGAAAGTAGTCTCATTTTCTTGTTTACATTTATATCCATGTTTGTTGAATTGAGTACAGTTCAACAATGGTATTTCTTAGCTTAGCTTAAAAACTAAAATGGGATGATTCATTGAGTCTAT	0.403

Study 2
Target: PABPC1L2, full length, GST fusion (mouse, UniProt A0ABA7IW68)
Technique: RNAcompete
Molecule type: RNA
Sample: in vitro
Tested at: 20 nM
Notes: 7-mer, probes averaged, single round
Baseline: mean of 7-mers
Direction: higher = stronger binding
Target sequence (chain): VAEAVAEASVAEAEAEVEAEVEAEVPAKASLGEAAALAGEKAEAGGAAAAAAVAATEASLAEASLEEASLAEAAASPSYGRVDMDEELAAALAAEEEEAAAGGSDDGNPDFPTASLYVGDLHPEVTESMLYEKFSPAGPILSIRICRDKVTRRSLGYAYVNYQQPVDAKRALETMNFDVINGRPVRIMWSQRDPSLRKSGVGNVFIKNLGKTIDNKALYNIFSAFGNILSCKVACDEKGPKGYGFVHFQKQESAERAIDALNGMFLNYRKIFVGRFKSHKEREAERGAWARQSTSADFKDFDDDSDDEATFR
Sequence	7-mer Z-score
AACCGGA	0.358
ACAGCUA	-0.0047
GCGCUGC	-0.249
GGCCCAC	-0.22
CACAAGU	-0.161
GAUGAUU	-0.284
GCCUAUC	-0.264
GCACAGC	-0.121
UGCACUA	-0.211
CAGCCAU	-0.141
UAAGGUU	-0.197
GGGGCUC	0.233
CAAACGA	0.327
UGAGGAA	0.148
CCAAAGG	0.1
CCUUUAA	0.153

Study 3
Target: Centromere-binding protein 1, full length, His-tagged (CBF1, Saccharomyces cerevisiae, UniProt P17106, residues 1-351)
UniProt P17106, sequence (whole entry, looked up): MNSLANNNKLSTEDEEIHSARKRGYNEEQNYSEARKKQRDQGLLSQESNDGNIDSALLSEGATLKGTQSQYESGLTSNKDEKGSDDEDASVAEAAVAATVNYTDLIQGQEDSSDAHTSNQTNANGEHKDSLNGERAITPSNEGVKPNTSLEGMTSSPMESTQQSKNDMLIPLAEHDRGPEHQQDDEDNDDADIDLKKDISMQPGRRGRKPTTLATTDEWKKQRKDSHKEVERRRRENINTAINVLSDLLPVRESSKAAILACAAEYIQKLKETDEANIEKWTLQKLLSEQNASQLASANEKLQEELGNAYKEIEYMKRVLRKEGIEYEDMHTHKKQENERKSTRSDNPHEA
Technique: competition protein-binding microarray
Molecule type: double-stranded DNA, one strand shown
Sample: in vitro
Tested at: 2 µM
Notes: whole 60-bp probe, lowest competitor level
Together with: Pho4 competitor, 0.05 µM
Direction: higher = stronger binding
Constant ends, left off below: … GTCTTGATTCGCTTGACGCTGCTG
Sequence	fluorescence intensity
TGTTTCTTCTGAAAGCACGTGTGAAAAGTTTTCCTG	1950 a.u.
AAAGCGGTAATTTTTCACGTGAAATCAAATATCTAT	928 a.u.
AAATTACTAAGTTGCCAAGTGGGTGACGCCGTATGA	64.7 a.u.
CACTTGAAAACGGTGAACGTGGTCGTATACCTTCGA	98.6 a.u.
TTGCGCTTGCCGTAGCACATGACAAACGGACTATTG	380 a.u.
TGCGCAACAACTTGCTCAGTGGGTGTATGTCTAGAA	73 a.u.
GGGGATGTTATGAACCATGTGGCTACTTTTATAAGC	142 a.u.
CTTTCCCGATCTTGTCGGGTGGGTGTAGCACATTTG	61.3 a.u.
TGAAATAGATATTAGCACGTGTCGGGGAGAGAAGAA	1870 a.u.
TCTGGATATTCACCACACCTGATTGGGAAGACTCAT	101 a.u.
CCATCAATACTTTTATTCATGACAAGATGCATAGGT	96.6 a.u.
CGGGGTTAAGTTTGTCACATGACTTGCTTGCAGCAG	1870 a.u.
GGGAAGACCATCGACCACATGTGTGCATTGTAAAGA	147 a.u.
GTCTTGTCTCATTGTCACTTAACTTTCCCCACTTCA	75.9 a.u.
CGGGGTTAAGTTTGCTTTGTGGGTGGCTTGCAGCAG	79.3 a.u.
AAAGCGGTAATTTGCTGGGTGGGTGCAGATATCTAT	69.3 a.u.
GCATACACATACACATTCGTGCAAACATTCATTTAT	96.1 a.u.
GCAAGTCAAGAGGTCTCCGTGATGGCTAGCCACCTC	55.6 a.u.
CTTTCCCGATCTTTTCACGTGAGATTAGCACATTTG	923 a.u.

Study 4
Target: RNA binding protein fox-1 homolog 2, RRM domain, GST-SBP tag (RBFOX2, Homo sapiens, UniProt O43251-10, residues 100-194)
Technique: RNA Bind-n-Seq
Molecule type: RNA
Sample: in vitro
Tested at: 365 nM
Notes: natural RNA segment, single round, ends assumed
Baseline: no-protein control
Direction: higher = stronger binding
Constant ends, left off below: GGGAGUUCUACAGUCCGACGAUC … UGGAAUUCUCGGGUGCCAA
Target sequence (chain): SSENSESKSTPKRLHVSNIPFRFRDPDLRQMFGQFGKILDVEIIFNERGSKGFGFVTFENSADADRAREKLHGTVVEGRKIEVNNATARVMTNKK
Sequence	RBNS enrichment (R)
CGUUCUGUCACUUUGAACGAAGUCUGAGUGAGGCUAGUGACUCCUUGGGUGUCCUCAACAGUGAAUUCACUGUCUGCGUGCAGUUAUUACAUGCAUUUGUGCAUUUCUAC	0.243
UAAUUACGGAUGUAAUUCUGUGUAUCUUACUGUGACUCCGAAAACUGUAGUAUUGGUGUCAUGGGAAUGUACGUUAUUUCCAAAGUCAUUUCAUUAAAGAUGAAAACUUU	1.09
CUGCCUGCUAUGAGGGGUGGAUACUGUUCCAGAUCUUUGGGGGAAUUGUUACCUCCUGUUGUUUUGUUACUGAGUAAGAUAACUUUGUUGAAUAAAGACCUUUAUCCCCA	1.57
UCACUUUGCCUUCCUGAGUUGGCCCCACUCCACUUGGGGGUCUGCAUUGGAUUGUUAGGGAUAGGCAGCAGGGCUGAGGCAAGGUAGGCCAACUGCACCCCUGUCGCCUG	0.338
UAUCUGAUAUUUUUCCAAAUUAAAUAAGUUAGAGAAUGCAAUCGGCGGAUGUGGGGGCGGCCAUCUGGUAGUGGAAAGCUGUAGCGAUCUGAGUACAGCUUAGAUGUUAG	3.9
CCAUUCCCUCCUGCUGCGGUUUCUCUUGGCCUGUCCUCACUGGAAAAACAGUCUCCAUCUCCUCAAAAUAGUUGCUGACUCCCUGCACCCAAGGGGCCUCUCCAUGCCUU	0.554
ACCUGGCACUAAGGGAGUACCUUAUUAUCCUACAUCGCAAAUUUCAACAGCUACAUUAUAUUUCCUUCUGACACUUGGAAGGUAUUGAAAUUUCUAGAAAUGUAUCCUUC	0.709
GAGUGCCUAAUCUUGUGGUUAUAAUGUACAAUGAAAUAAUCUUGUGGGGGUUUUUUGUUUUCUCAAGAGGAAUUUUUUUUUUUUAUCAUUGCAGAGGUAUGUCAUUGGUU	0.509

Repeated from above (study 3):
Sequence	fluorescence intensity
TTGCGCTTGCCGTAGCACATGACAAACGGACTATTG	380 a.u.
GGGGATGTTATGAACCATGTGGCTACTTTTATAAGC	142 a.u.
GCAAGTCAAGAGGTCTCCGTGATGGCTAGCCACCTC	55.6 a.u.
TCTGGATATTCACCACACCTGATTGGGAAGACTCAT	101 a.u.
